Published values of several laboratories.
Each numbered part is a random draw from the data of one study; scales do not carry over between parts. Several values in a cell are separate wells, animals, samples, runs or records.
Chain of UniProt Q00535 (whole entry, looked up): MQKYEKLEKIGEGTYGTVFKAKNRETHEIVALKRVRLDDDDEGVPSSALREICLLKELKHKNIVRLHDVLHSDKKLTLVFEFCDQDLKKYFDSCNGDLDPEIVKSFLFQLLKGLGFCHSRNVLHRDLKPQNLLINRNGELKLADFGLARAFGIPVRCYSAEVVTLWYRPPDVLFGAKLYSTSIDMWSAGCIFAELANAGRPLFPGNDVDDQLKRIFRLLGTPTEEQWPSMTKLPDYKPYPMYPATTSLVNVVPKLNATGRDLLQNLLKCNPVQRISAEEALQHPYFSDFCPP
Chain of UniProt Q8N752 (whole entry, looked up): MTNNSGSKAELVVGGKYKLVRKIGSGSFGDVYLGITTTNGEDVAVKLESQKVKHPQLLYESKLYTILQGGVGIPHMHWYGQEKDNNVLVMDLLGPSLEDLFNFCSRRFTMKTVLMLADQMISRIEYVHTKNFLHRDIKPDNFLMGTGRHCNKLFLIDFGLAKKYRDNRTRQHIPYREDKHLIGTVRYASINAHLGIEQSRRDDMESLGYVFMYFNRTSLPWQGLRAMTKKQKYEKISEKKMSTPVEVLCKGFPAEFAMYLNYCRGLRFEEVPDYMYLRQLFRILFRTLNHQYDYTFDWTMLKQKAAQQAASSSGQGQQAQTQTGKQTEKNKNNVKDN
Chain of UniProt O60331 (whole entry, looked up): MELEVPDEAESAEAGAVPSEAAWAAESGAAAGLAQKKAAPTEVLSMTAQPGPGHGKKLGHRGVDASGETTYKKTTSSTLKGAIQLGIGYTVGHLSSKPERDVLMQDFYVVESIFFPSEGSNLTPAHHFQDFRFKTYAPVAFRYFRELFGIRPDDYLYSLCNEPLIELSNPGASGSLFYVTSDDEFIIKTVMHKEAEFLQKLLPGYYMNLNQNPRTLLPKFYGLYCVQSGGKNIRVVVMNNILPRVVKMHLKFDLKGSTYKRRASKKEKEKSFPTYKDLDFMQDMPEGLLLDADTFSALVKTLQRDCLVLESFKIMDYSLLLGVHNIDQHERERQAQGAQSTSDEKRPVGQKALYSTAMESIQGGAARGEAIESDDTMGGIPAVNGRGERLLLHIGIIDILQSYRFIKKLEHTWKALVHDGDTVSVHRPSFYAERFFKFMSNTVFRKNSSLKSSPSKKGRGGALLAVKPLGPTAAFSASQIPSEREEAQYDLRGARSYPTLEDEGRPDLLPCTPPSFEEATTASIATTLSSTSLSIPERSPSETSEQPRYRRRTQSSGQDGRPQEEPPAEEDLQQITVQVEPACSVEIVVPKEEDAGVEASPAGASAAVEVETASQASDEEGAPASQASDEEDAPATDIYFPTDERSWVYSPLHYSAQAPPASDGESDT
Chain of UniProt Q9Y616 (whole entry, looked up): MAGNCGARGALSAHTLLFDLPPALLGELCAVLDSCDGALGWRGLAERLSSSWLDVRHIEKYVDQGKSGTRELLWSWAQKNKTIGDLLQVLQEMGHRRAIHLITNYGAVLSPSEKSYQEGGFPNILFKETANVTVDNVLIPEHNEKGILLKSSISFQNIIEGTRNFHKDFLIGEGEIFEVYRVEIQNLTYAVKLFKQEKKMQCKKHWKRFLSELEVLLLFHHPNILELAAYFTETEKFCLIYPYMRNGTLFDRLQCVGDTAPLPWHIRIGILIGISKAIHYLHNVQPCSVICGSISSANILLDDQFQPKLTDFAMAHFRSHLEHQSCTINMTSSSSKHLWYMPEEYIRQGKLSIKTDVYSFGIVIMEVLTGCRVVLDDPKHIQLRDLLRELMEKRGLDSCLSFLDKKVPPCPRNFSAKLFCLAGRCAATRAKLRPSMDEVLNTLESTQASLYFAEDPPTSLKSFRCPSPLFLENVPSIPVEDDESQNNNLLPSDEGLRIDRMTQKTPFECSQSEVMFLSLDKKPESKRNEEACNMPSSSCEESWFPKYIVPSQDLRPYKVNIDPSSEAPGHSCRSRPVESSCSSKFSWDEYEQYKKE
Chain of UniProt Q13464 (whole entry, looked up): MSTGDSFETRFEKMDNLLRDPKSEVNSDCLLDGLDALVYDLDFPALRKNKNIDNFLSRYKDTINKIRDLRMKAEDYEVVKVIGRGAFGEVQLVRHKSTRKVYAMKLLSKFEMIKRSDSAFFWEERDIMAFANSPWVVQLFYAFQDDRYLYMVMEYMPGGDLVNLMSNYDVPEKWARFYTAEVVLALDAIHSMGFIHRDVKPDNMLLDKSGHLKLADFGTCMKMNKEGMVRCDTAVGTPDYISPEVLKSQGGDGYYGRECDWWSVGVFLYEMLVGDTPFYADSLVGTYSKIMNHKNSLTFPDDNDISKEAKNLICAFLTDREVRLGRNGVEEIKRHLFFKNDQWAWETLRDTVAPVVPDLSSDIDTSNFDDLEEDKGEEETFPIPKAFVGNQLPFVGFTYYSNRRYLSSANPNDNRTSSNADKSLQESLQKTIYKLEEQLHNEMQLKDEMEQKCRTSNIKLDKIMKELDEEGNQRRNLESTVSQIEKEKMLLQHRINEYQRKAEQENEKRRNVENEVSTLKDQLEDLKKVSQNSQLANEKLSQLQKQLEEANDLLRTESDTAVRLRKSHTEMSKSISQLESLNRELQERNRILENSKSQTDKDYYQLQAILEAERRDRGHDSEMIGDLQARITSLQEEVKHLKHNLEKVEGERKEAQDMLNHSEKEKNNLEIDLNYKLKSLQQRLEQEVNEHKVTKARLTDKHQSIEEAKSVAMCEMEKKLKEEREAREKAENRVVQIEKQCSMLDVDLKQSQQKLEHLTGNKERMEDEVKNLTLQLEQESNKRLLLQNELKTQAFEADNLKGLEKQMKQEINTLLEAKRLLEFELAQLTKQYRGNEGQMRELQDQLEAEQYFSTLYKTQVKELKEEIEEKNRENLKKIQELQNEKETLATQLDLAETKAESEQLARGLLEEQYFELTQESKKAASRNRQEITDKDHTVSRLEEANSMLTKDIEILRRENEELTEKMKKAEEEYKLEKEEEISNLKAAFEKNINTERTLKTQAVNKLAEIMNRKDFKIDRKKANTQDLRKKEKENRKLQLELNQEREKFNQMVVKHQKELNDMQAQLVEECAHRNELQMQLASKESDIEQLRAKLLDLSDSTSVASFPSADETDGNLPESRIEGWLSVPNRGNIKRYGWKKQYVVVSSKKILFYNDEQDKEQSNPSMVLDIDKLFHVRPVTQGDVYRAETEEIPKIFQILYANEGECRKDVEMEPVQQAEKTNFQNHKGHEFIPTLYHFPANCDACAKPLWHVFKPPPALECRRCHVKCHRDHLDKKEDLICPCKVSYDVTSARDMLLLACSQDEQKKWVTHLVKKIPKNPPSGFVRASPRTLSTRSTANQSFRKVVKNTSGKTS
Chain of UniProt O75914 (whole entry, looked up): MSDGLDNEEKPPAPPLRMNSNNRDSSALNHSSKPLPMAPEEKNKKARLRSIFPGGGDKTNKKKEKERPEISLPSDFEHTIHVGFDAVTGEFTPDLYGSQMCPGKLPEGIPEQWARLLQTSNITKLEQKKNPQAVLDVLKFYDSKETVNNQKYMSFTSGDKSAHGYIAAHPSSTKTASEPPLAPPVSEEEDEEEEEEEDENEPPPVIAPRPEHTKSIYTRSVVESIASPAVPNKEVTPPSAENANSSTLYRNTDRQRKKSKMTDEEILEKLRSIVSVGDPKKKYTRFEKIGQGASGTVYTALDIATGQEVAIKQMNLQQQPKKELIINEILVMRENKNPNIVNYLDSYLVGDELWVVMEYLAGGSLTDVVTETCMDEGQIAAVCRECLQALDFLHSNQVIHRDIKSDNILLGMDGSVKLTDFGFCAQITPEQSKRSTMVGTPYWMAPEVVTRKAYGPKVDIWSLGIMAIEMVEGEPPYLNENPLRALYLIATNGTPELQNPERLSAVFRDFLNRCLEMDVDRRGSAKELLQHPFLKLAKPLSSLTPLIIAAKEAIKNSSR
Chain of UniProt Q16832 (whole entry, looked up): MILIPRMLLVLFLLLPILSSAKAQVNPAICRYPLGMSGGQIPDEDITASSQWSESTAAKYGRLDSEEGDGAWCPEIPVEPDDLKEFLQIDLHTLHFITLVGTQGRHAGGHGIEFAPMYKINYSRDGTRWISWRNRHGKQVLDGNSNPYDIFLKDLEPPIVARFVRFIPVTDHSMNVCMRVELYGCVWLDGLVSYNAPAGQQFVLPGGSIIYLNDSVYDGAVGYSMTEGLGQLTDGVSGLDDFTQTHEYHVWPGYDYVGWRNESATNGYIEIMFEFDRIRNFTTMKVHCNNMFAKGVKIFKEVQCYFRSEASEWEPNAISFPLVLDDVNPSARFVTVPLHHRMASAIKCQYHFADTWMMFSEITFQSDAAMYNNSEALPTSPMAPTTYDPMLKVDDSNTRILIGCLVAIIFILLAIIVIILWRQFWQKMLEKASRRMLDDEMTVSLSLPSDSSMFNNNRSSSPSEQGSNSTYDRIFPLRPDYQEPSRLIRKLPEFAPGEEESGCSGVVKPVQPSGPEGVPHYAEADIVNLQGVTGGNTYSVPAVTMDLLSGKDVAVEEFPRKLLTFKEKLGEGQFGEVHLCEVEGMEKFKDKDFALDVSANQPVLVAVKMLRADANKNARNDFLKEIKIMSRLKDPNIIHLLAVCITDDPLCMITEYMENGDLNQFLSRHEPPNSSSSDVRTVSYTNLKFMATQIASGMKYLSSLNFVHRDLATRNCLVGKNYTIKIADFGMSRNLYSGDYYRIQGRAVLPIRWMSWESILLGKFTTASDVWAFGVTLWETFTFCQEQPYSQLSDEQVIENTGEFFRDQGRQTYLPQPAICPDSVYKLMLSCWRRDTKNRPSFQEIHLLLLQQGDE
Chain of UniProt P06493 (whole entry, looked up): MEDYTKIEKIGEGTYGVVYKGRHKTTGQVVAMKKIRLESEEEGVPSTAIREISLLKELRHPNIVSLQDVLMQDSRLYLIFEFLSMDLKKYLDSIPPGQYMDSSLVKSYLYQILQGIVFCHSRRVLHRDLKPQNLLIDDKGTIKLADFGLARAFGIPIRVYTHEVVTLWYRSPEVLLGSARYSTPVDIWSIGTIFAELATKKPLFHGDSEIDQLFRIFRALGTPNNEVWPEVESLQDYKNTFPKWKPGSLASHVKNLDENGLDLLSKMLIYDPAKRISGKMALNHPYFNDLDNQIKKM

Set 1
Organism: Plasmodium berghei
Action: inhibitor
Cell line: Huh-7
Strain: GFP-expressing, liver stage
Tested at: 10 µM
Time: 24 h
Reference: untreated control
Measurement: infection rate
CCCc1nn(C)c2c(=O)[nH]c(-c3cc(S(=O)(=O)N4CCN(C)CC4)ccc3OCC)nc12: 73.3%
CCCCC1C(=O)N(c2ccccc2)N(c2ccc(O)cc2)C1=O (stereo not drawn): 80.1%
CC(C)CCCC(C)N (stereo not drawn): 97.9%
CC(=O)O[C@H]1C[C@@H]2CC[C@@H]3[C@H](CC[C@@]4(C)[C@H]3C[C@H]([N+]3(C)CCCCC3)[C@@H]4OC(C)=O)[C@@]2(C)C[C@@H]1N1CCCCC1: 113%
CN(C)CCC(c1ccccc1)c1ccccn1 (stereo not drawn): 81%
O=C(O)c1cc(/N=N/c2ccc(S(=O)(=O)Nc3ccccn3)cc2)ccc1O: 112%

Set 2
Compound: O=C1Nc2ccccc2/C1=C\c1c(Cl)[nH]c2ccccc12
Effect on: enzyme activity
Action: inhibitor
Tested at: 0.5 µM
Reference: control
Measurement: remaining activity
Mitogen-activated protein kinase 14 (MAPK14, Homo sapiens, UniProt Q16539): 101%
Serine/threonine-protein kinase PAK 3 (PAK3, Homo sapiens, UniProt O75914): 98.8%
MAP/microtubule affinity-regulating kinase 4 (MARK4, Homo sapiens, UniProt Q96L34): 106%
Dual specificity protein kinase CLK3 (CLK3, Homo sapiens, UniProt P49761): 102%
Discoidin domain-containing receptor 2 (DDR2, Homo sapiens, UniProt Q16832): 92.7%
Cyclin-dependent kinase 9, with cyclin K (CDK9, Homo sapiens, UniProt P50750): 98.3%
Calcium/calmodulin-dependent protein kinase type IV (CAMK4, Homo sapiens, UniProt Q16566): 102%
Dual specificity mitogen-activated protein kinase kinase 1 (MAP2K1, Homo sapiens, UniProt Q02750): 84.8%
Cyclin-dependent kinase 1, with cyclin A (CDK1, Homo sapiens, UniProt P06493): 103%
cGMP-dependent protein kinase 2 (PRKG2, Homo sapiens, UniProt Q13237): 71.7%
Calcium/calmodulin-dependent protein kinase type 1B (PNCK, Homo sapiens, UniProt Q6P2M8): 92.9%
Tyrosine-protein kinase TXK (TXK, Homo sapiens, UniProt P42681): 99.6%
Serine/threonine-protein kinase MRCK beta (CDC42BPB, Homo sapiens, UniProt Q9Y5S2): 102%

Set 3
SMILES: COc1cc(C(=O)N2CCC(N3CCN(C)CC3)CC2)ccc1Nc1ncc2c(n1)N(C)c1ccccc1C(=O)N2C
Measurement: inhibition
MAP3K2 (human); probe labelling, KiNativ ADP probe; human PBMC lysate; concentration not given, LYS1 labelled site: -3.3% and -4.7%
PIP4K2C (mouse); KiNativ ADP probe; mouse brain tissue; 0.1 µM, ATP site probe: -6.7%
NDR2 (mouse); probe labelling, KiNativ, item: DTGHIYAMkILR peptide, LYS1 site; brain tissue lysate (mouse); 1 µM, with: ATP acyl-phosphate probe: -8.4%
mouse PCTAIRE1/2/3; probe labelling, KiNativ ATP probe; mouse brain lysate; 1 µM, LYS2 site DLkPQNLLINER: -14.5%
AKT1 (mouse); probe labelling, KiNativ, item: GTFGkVILVK peptide, ATP loop; brain tissue lysate (mouse); 1 µM, with: ADP acyl-phosphate probe: 2.6%
ULK3 (mouse); probe labelling, KiNativ, item: EVVAIkCVAK peptide, LYS1 site; brain tissue lysate (mouse); 1 µM, with: ATP acyl-phosphate probe: 0.8%
PIK3CB human; KiNativ profiling; human PBMC; 0.1 µM, ATP site, with: ATP acyl phosphate probe: 4.4%

Set 4
Structure (SMILES): O=C(O)[C@H]1[C@H](Cn2nnc3ccccc3c2=O)CC[C@@H]1C(=O)c1ccc(OCCC2CCOCC2)cc1
Technique: competition with immobilised ligand
Tested at: 1 µM
Measurement: remaining binding
Interleukin-1 receptor-associated kinase 3 (IRAK3, Homo sapiens, UniProt Q9Y616); cell-free assay: 77%
Casein kinase I isoform alpha-like (CSNK1A1L, Homo sapiens, UniProt Q8N752); cell-free assay: 100%
Phosphatidylinositol 4-phosphate 5-kinase type-1 gamma (PIP5K1C, Homo sapiens, UniProt O60331); cell-free assay: 100%
Serine/threonine-protein kinase 32A (STK32A, Homo sapiens, UniProt Q8WU08); binding: 88%
Rho-associated protein kinase 1 (ROCK1, Homo sapiens, UniProt Q13464); cell-free assay: 87%
Dual specificity protein kinase CLK2 (CLK2, Homo sapiens, UniProt P49760); cell-free assay: 100%
Cyclin-dependent kinase 5 (CDK5, Homo sapiens, UniProt Q00535); cell-free assay: 100%

A few entries again (set 2):
Cyclin-dependent kinase 9, with cyclin K (CDK9, Homo sapiens, UniProt P50750): 98.3%
Calcium/calmodulin-dependent protein kinase type IV (CAMK4, Homo sapiens, UniProt Q16566): 102%
Dual specificity mitogen-activated protein kinase kinase 1 (MAP2K1, Homo sapiens, UniProt Q02750): 84.8%
Cyclin-dependent kinase 1, with cyclin A (CDK1, Homo sapiens, UniProt P06493): 103%
cGMP-dependent protein kinase 2 (PRKG2, Homo sapiens, UniProt Q13237): 71.7%
Calcium/calmodulin-dependent protein kinase type 1B (PNCK, Homo sapiens, UniProt Q6P2M8): 92.9%
